Experimental data of several laboratories.
Protocols differ between the studies behind these lines. ± gives the spread as reported.
Uncharacterized protein: Uncharacterized protein (Trypanosoma brucei brucei, UniProt Q386Q8)
TDP1: Tyrosyl-DNA phosphodiesterase 1 (TDP1, Homo sapiens, UniProt Q9NUW8)
UniProt Q9NUW8, sequence (whole entry, looked up): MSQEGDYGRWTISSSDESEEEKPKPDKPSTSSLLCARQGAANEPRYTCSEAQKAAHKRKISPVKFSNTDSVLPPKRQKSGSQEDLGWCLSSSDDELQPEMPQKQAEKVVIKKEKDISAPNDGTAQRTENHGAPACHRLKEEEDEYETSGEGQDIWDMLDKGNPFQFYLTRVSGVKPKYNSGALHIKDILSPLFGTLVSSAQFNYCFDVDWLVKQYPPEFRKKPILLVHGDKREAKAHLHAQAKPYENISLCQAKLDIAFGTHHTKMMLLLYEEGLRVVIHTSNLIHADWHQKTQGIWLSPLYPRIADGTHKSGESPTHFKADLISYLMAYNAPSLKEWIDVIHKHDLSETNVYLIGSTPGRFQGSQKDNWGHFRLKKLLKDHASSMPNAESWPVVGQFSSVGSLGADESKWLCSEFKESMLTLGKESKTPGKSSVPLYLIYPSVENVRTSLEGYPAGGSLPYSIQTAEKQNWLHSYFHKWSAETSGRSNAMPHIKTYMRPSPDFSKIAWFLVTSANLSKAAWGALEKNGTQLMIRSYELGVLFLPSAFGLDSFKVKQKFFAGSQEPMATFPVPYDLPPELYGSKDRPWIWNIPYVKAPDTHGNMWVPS
TACR3: Neuromedin-K receptor (TACR3, Homo sapiens, UniProt P29371)
UniProt P29371, sequence (whole entry, looked up): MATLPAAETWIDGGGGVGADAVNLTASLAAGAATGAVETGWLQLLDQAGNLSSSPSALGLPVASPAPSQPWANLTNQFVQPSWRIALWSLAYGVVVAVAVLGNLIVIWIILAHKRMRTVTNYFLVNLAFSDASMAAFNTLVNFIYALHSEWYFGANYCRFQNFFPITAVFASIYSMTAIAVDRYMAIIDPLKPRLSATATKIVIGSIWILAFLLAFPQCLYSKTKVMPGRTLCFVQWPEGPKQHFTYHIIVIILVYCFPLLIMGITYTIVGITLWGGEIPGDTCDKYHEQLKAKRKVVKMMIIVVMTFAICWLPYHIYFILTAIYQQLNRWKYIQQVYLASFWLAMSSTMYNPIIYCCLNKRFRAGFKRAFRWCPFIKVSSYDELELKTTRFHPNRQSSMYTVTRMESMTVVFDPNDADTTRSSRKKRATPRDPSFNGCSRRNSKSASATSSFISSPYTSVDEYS
OfChi-h: Chitinase (OfChi-h, Ostrinia furnacalis, UniProt Q4AE59)
ADRB3: Beta-3 adrenergic receptor (ADRB3, Homo sapiens, UniProt P13945)
UniProt P13945, sequence (whole entry, looked up): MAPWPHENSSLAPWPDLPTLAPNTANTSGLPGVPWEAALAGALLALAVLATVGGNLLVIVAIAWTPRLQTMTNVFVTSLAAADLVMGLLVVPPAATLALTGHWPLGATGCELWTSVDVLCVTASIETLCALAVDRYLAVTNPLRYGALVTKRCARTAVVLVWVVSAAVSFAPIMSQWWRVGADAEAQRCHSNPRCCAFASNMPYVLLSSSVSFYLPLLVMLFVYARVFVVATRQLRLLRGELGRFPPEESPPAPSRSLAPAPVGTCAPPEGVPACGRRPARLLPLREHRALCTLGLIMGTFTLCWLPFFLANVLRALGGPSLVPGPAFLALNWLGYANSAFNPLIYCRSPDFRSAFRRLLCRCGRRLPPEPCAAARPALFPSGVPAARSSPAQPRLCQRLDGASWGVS
ppa: Inorganic pyrophosphatase (ppa, Escherichia coli, UniProt P0A7A9)
UniProt P0A7A9, sequence (whole entry, looked up): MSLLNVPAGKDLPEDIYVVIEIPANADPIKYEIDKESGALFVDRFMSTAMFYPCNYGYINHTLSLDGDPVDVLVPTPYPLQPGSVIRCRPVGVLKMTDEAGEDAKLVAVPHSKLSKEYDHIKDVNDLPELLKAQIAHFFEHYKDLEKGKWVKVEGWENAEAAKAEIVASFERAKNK
UniProt Q15120, sequence (whole entry, looked up): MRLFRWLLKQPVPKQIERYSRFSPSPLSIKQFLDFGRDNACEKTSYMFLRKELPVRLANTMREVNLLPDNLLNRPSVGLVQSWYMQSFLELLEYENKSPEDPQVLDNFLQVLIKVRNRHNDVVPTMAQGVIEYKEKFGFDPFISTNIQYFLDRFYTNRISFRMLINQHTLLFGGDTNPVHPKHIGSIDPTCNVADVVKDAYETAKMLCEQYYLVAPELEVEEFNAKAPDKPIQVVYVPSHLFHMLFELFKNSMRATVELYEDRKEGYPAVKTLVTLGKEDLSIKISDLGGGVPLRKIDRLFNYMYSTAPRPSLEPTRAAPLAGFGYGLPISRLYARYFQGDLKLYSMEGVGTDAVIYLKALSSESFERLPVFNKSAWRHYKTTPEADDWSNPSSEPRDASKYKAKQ
UniProt P14778, sequence (whole entry, looked up): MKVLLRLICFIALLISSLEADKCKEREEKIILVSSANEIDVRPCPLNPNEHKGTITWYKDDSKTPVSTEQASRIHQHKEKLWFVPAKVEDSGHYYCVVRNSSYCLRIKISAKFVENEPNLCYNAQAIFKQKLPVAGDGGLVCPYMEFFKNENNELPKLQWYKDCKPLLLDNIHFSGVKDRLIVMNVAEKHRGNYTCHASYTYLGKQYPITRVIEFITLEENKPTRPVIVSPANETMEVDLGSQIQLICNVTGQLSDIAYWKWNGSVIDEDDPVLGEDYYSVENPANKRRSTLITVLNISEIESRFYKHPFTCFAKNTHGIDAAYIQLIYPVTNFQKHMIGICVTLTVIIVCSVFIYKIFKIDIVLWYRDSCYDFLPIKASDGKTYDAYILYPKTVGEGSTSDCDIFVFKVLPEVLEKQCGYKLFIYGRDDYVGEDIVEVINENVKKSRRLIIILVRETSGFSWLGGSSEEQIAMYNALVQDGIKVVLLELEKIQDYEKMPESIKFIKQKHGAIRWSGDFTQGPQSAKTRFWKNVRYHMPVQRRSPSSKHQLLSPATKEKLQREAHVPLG
UniProt O00443, sequence (whole entry, looked up): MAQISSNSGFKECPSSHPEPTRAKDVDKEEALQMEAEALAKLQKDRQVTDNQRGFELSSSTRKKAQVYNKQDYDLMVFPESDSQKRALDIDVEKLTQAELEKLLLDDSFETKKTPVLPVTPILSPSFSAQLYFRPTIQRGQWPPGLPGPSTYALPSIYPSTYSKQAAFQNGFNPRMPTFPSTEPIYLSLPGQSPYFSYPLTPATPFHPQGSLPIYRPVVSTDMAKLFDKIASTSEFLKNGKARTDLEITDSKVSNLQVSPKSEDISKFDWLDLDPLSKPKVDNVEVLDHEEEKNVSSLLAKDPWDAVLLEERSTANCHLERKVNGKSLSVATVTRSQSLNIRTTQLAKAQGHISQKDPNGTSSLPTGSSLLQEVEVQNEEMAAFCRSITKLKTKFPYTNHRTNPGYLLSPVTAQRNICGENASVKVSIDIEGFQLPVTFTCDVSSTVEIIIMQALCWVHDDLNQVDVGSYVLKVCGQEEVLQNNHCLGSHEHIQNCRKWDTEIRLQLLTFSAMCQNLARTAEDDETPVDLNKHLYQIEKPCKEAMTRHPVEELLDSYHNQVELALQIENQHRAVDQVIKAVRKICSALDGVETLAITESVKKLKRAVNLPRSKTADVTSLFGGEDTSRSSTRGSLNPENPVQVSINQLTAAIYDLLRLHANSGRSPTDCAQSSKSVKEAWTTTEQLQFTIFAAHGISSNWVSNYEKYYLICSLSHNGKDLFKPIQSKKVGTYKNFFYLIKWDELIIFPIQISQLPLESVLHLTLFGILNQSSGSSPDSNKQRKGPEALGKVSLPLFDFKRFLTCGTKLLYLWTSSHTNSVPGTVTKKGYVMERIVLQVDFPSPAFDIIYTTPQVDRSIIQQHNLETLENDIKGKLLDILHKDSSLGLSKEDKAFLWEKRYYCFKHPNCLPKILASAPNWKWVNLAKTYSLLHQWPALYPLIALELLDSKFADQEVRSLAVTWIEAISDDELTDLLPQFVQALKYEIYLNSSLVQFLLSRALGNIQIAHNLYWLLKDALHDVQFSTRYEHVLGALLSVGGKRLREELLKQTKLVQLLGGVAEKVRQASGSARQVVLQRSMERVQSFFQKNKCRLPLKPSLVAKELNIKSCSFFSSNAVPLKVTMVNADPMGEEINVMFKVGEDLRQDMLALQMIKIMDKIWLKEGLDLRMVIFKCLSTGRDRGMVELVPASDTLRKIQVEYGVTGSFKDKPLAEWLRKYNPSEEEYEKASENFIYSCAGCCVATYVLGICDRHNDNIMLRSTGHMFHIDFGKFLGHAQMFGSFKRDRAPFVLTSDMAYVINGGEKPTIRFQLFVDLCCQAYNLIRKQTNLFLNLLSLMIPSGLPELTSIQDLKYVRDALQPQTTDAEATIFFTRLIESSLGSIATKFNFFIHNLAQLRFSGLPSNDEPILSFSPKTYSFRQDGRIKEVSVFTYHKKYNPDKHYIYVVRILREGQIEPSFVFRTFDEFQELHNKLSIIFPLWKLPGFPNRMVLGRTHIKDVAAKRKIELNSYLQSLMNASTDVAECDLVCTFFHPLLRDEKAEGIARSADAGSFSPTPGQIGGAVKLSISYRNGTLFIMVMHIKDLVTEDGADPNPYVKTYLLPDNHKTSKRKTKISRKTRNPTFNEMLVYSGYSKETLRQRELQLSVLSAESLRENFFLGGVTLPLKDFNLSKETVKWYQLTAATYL
UniProt O75365, sequence (whole entry, unmodified, looked up): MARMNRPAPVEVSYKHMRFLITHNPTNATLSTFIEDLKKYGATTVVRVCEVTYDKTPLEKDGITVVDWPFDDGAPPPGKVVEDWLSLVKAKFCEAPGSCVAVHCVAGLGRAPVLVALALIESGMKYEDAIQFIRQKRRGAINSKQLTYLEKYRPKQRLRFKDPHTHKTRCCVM
UniProt P30989, sequence (whole entry, looked up): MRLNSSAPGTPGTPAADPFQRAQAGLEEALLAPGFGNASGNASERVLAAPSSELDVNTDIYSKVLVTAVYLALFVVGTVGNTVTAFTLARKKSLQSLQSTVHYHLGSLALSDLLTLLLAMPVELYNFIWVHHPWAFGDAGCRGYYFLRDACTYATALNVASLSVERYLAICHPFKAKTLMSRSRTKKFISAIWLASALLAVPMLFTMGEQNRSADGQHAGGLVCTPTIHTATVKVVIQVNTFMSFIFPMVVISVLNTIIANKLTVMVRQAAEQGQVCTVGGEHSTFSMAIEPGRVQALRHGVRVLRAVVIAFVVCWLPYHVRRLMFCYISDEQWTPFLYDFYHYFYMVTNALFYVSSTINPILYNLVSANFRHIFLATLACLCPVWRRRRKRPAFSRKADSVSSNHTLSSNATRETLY

CC(=O)C1=C(c2ccc(F)cc2)N(C(C)=O)n2cnnc2S1  inhibition (Uncharacterized protein; enzyme activity, inhibitor, coupled colorimetric; 30 µM, together with: E. coli pyrophosphatase coupling): 38.4%
COc1ccc2c(OC)ccc(C=NOCc3ccc(-c4nc5cc(-c6ccccc6)ccn5c4Nc4ccc(C(=O)O)cc4)cc3)c2c1 (mixture of isomers)  inhibition (TDP1; enzyme activity, inhibitor; 100 µM, unpurified compound): 18.4%
CO[C@@H](C)c1c(NC(=O)Nc2cnc(-n3nccn3)c(C(F)(F)F)c2)cnc2sc(C)nc12  inhibition (TACR3; ligand displacement, radioligand; 10 µM): 11.5%
CCn1cc(C(=O)O)c(=O)c2c(N)c(F)c(NC3CCCCC3)cc21  inhibition (PDK3 (Homo sapiens, UniProt Q15120); kinase activity; 0.1 µM, together with: ATP at Km): 10.3%
CC1=NN(c2cccc(F)c2)C(=O)/C1=N\Nc1ccc(S(N)(=O)=O)cc1  inhibition (bovine α-glucosidase; enzyme activity, inhibitor, glucose oxidase; 50 µg/mL, together with: maltose): 27.6%
CC(C)Cn1c(SCC(=O)N2CCc3ccccc3C2)nc2cc(Cl)ccc2c1=O  inhibition (benzodiazepine site rat; binding; rat brain; 10 µM): 25%
Cn1ccc2cc(-n3c(=O)[nH]c4sc5c(c4c3=O)CCCC5)ccc21  inhibition (IL1R1 (Homo sapiens, UniProt P14778); cell-free assay; 10 µM): -2%
CN(C)c1nc(NCc2cccc3ccccc23)c(/N=N/c2ccc(Cl)cc2)c(N(C)C)n1  inhibition (OfChi-h; enzyme activity, inhibitor, fluorescence; 1 µM): 83.9%
COc1ccc(S(=O)(=O)N2CCc3ccccc3C2)cc1N1CCN(C(=O)c2ccc(F)cc2C(F)(F)F)CC1  inhibition (ADRB3; ligand displacement, radioligand; 1 µM): 4.7%
O=C(O)c1ccc(Nc2c(-c3ccccc3)nc3ccc(CON=CCc4ccccc4)cn23)cc1 (mixture of isomers)  inhibition (TDP1; enzyme activity, inhibitor; 100 µM, unpurified compound): 22.9%
CNc1sc(C(=O)c2ccc(OC)cc2)c(N)c1C#N  inhibition (ppa; inhibitor, counter-screen, coupling enzyme alone; 30 µM): 37%
C[Si]1(C[C@H](CN)CC(=O)O)CCCC1  inhibition (TACR3; ligand displacement, radioligand; 70 µM): -12%
Oc1cc2c(cc1O)C(c1ccco1)NCC2 (stereo not drawn)  inhibition (tyrosinase; enzyme activity, inhibitor; 100 µM, together with: levodopa): 31.7 ± 2.26%
CCC(=O)N(C)c1ccc(Cl)c(Cl)c1  inhibition (NTSR1 (Homo sapiens, UniProt P30989); ligand displacement, radioligand; 10 µM): < 10%
O=C(CSc1nnc(-c2ccco2)c(-c2ccco2)n1)c1ccc(Br)cc1  inhibition (Uncharacterized protein; enzyme activity, inhibitor, coupled colorimetric; 30 µM, together with: E. coli pyrophosphatase coupling): 30.7%
COC(=O)c1ccc(-c2cccc(C=NOCc3ccc(-c4nc5cc(-c6ccccc6)ccn5c4Nc4ccc(C(=O)O)cc4)cc3)n2)cc1  inhibition (TDP1; enzyme activity, inhibitor; 100 µM, unpurified compound): 52%
CC(=O)C12NC(C)(C)CC1(C)C(=O)C1=C2c2c(c3c4n2C(C)(C)CC2=C4C4(CC(C)(C)NC(C)(C4)C2=O)CC3(C)C)C(=O)C(C)(C)N1 (single isomer, unassigned; (+))  inhibition (CACNA1I (Homo sapiens, UniProt Q9P0X4); ion current, antagonist, whole-cell patch clamp; HEK293T; 10 µM): 3.06 ± 0.05%
CN(C)c1nc(-c2ccccc2)c(C=NOCc2ccc3nc(-c4ccccc4)c(Nc4ccc(C(=O)O)cc4)n3c2)c(=O)o1  inhibition (TDP1; enzyme activity, inhibitor; 100 µM, unpurified compound): 1.3%
Cc1c(C)c(C)c(C[N+]2(C)CCN(CCCN3c4ccccc4Sc4ccc(Cl)cc43)CC2)c(C)c1C  inhibition (Uncharacterized protein; enzyme activity, inhibitor, coupled colorimetric; 30 µM, together with: E. coli pyrophosphatase coupling): 45%
CCN1CCN(Cc2ccc(CNc3nc(N(C)C)nc(N(C)C)c3/N=N/c3ccc(Cl)cc3)cc2)CC1  inhibition (OfChi-h; enzyme activity, inhibitor, fluorescence; 1 µM): 49.2%
CC(=O)NC1C(=O)N(c2ccccc2)N=C1C (stereo not drawn)  inhibition (ppa; inhibitor, counter-screen, coupling enzyme alone; 30 µM): 46.1%
Brc1ccccc1-c1nnc(CSc2nnnn2-c2ccccc2)o1  inhibition (CHRM5 (Homo sapiens, UniProt P08912); ligand displacement, radioligand; 10 µM): -6%
C[Si](C)(C)C[C@H](CN)CC(=O)O  inhibition (CCKAR (Homo sapiens, UniProt P32238); ligand displacement, radioligand; 250 µM): -1%
O=C1c2sc(-c3ccc(N4CCC(F)C4)nc3F)nc2CCN1c1cccnc1 (stereo not drawn)  inhibition (central benzodiazepine receptor; radioligand binding; 1 µM, together with: agonist radioligand): 7%
O=C(O)c1ccc(Nc2c(-c3ccccc3)nc3ccc(CON=Cc4cn(Cc5ccc(Cl)cc5)nn4)cn23)cc1 (mixture of isomers)  inhibition (TDP1; enzyme activity, inhibitor; 100 µM, unpurified compound): 15.6%
Cc1nc2c(F)cc(-c3nc(Nc4ccc(CNC(=O)CCCCCCC(=O)NO)cc4)ncc3F)cc2n1C(C)C  inhibition (Phosphatidylinositol 4,5-bisphosphate 3-kinase catalytic subunit alpha isoform, with p85 alpha (Pik3ca, Mus musculus, UniProt P42337); enzyme activity; 1 µM, p110α/p85α)(m mouse): 18%
C/C=C/C(=O)Nc1ccc2nc(NCCCCCN(C)C)nc(NCCCCCCN(C)C)c2c1  inhibition (EHMT1 (Homo sapiens, UniProt Q9H9B1); enzyme activity, inhibitor, radiometric; 10 µM): 20%
CC1=NN(c2ccccc2F)C(=O)/C1=N\Nc1ccc(S(N)(=O)=O)cc1  inhibition (bovine α-glucosidase; enzyme activity, inhibitor, glucose oxidase; 100 µg/mL, together with: maltose): 38.5%
COc1cc(C=NOCc2ccc(-c3nc4cc(-c5ccccc5)ccn4c3Nc3ccc(C(=O)O)cc3)cc2)cc(I)c1OC (mixture of isomers)  inhibition (TDP1; enzyme activity, inhibitor; 100 µM, unpurified compound): 39%
O=C1c2sc(-c3ccc(N4CCC(CO)CC4)nc3F)nc2CCN1c1cccnc1  inhibition (SLC5A7 (Homo sapiens, UniProt Q9GZV3); ligand displacement, radioligand; 1 µM): 5%
Oc1cccc(C2NCCc3cc(O)c(O)cc32)c1 (stereo not drawn)  inhibition (tyrosinase; enzyme activity, inhibitor; 100 µM, together with: levodopa): -5.64 ± 2.37%
CN1CC[C@@H](COc2cnc(C#N)cc2-c2ccn3nc(NC(=O)C4CC4)cc3c2)C1  inhibition (PIK3C2A (Homo sapiens, UniProt O00443); enzyme activity, inhibitor; 1 µM): -4%
CN(C)c1cc(N)c2cc(Cl)ccc2n1  inhibition (ppa; inhibitor, counter-screen, coupling enzyme alone; 30 µM): 38.9%
O=C(O)c1ccc(-c2ccc(O)cc2)c2c1C=C(c1ccc(O)cc1)OC2(c1ccc(O)cc1)c1ccc(O)cc1  inhibition (PDE4D (Homo sapiens, UniProt Q08499); enzyme activity, inhibitor; 50 nM): ≥ 50%
O=C(O)c1ccc(Nc2c(-c3ccc(CON=Cc4ccc(S(=O)(=O)c5ccc(Cl)cc5)cc4)cc3)nc3cc(-c4ccccc4)ccn23)cc1 (mixture of isomers)  inhibition (TDP1; enzyme activity, inhibitor; 100 µM, unpurified compound): 76.3%
C[N+](C)(CCCN1c2ccccc2CCc2ccc(Cl)cc21)Cc1ccc2ccccc2c1  inhibition (Uncharacterized protein; enzyme activity, inhibitor, coupled colorimetric; 30 µM, together with: E. coli pyrophosphatase coupling): 36.1%
NC(=O)c1cc[n+](CC2=C(C(=O)O)N3C(=O)C(NC(=O)C(c4ccccc4)S(=O)(=O)[O-])C3SC2)cc1 (stereo not drawn)  inhibition (Protein tyrosine phosphatase type IVA 3, with CNNM4 CBS domain (PTP4A3, Homo sapiens, UniProt O75365); protein-protein interaction, HTRF; 10 µM): 94.7 ± 0.4%
CCn1cc(-c2cccc(C(F)(F)F)c2)c2sc(C(=N)NC3CCS(=O)(=O)CC3)cc2c1=O  inhibition (Bromodomain-containing protein 4, BD2 (BRD4, Homo sapiens, UniProt O60885); 1 µM): -5.86%
CN(Cc1ccc(/C=C/C(=O)NO)cc1)CC12CC3CC(CC(C3)C1)C2  inhibition (human GAL1 receptor; radioligand binding; 0.05 µM): -9%
COc1ccc(C(=O)Nc2c(-c3cccs3)nc3ccccn23)cc1  inhibition (ADRB3; ligand displacement, radioligand; 10 µM): < 50%
O=C(O)c1ccc(Nc2c(-c3ccccc3)nc3ccc(CON=Cc4cc([N+](=O)[O-])cc5c4OCOC5)cn23)cc1  inhibition (TDP1; enzyme activity, inhibitor; 100 µM, unpurified compound): -1.5%
CC(=O)Nc1sc2c(c1SC#N)CCCC2  inhibition (Uncharacterized protein; enzyme activity, inhibitor, coupled colorimetric; 30 µM, together with: E. coli pyrophosphatase coupling): 41.6%

For quick reference, copied from above:
CN(C)c1nc(NCc2cccc3ccccc23)c(/N=N/c2ccc(Cl)cc2)c(N(C)C)n1  inhibition (OfChi-h; enzyme activity, inhibitor, fluorescence; 1 µM): 83.9%
COc1ccc(S(=O)(=O)N2CCc3ccccc3C2)cc1N1CCN(C(=O)c2ccc(F)cc2C(F)(F)F)CC1  inhibition (ADRB3; ligand displacement, radioligand; 1 µM): 4.7%
O=C(O)c1ccc(Nc2c(-c3ccccc3)nc3ccc(CON=CCc4ccccc4)cn23)cc1 (mixture of isomers)  inhibition (TDP1; enzyme activity, inhibitor; 100 µM, unpurified compound): 22.9%
CNc1sc(C(=O)c2ccc(OC)cc2)c(N)c1C#N  inhibition (ppa; inhibitor, counter-screen, coupling enzyme alone; 30 µM): 37%
C[Si]1(C[C@H](CN)CC(=O)O)CCCC1  inhibition (TACR3; ligand displacement, radioligand; 70 µM): -12%
Oc1cc2c(cc1O)C(c1ccco1)NCC2 (stereo not drawn)  inhibition (tyrosinase; enzyme activity, inhibitor; 100 µM, together with: levodopa): 31.7 ± 2.26%
CCC(=O)N(C)c1ccc(Cl)c(Cl)c1  inhibition (NTSR1 (Homo sapiens, UniProt P30989); ligand displacement, radioligand; 10 µM): < 10%
